Measurements collected from several papers.
Numbered parts are unrelated; each lists some results of a single study.

Series 1 — method: RNA Bind-n-Seq; form: RNA; sample: in vitro; tested at: 365 nM; baseline: no-protein control; reading: higher = stronger binding
Target: RNA binding protein fox-1 homolog 2, RRM domain, GST-SBP tag (RBFOX2, Homo sapiens, UniProt O43251-10, residues 100-194)
Setting: natural RNA segment, single round, ends assumed
Shared flanks, not repeated: GGGAGUUCUACAGUCCGACGAUC … UGGAAUUCUCGGGUGCCAA
Construct (chain): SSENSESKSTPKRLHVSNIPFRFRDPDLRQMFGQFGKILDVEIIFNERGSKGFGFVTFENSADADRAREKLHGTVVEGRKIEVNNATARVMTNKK
Oligonucleotide	RBNS enrichment (R)
GACACCUGGCUGCCGACCUCACUCAGCUCACAGUGGGCUCCAGGCCCGUUUUUACUCAGACAGGGACAGUGUUCACCUACUUGAUACUGCCGUGUUUCUUACCCUCCCUU	0.297
AUUAAAGACGAAAAGCCACCUCGGUUUGCUUAACUUUAGAUAGAUAGGACCUGGCGCACACAAGAGCAGGAGAACAGGGCUGGAGCAGCUGUUGACGGGACCCCUGCUGU	0.583
CUGAAGAACAGUACUCCACAAACAUGGGUGGUAACAAGAGUUCCAUCCCAGGAGGCCAAACGGUGCAACAGAAGGGUAGGUUAGAUGCUAUUAAGAAGGCACUUAAUAGU	0.498
AGGAAGACAGACUCAUCCAGCGCCACCUCGGGCCCUCCCAGCACACGCAUGGUCUCUUCACUGCUGCCCUCAAUCCGAGUGUCCUUCCCUGCCCAGUCCUAGCCUCCCCG	2.7
GACCAUGUGCAAUUCCCAGGUAAGGGUACCUCAGACCCUUCCUGUCCAUGUAGUUCCGACUGCAGCAGUGUCUUAACUGAGUAGUCCAUUAAAGUACAAGUUGAUCAUUG	0.311
CAUGGAAAAAAUUUUCCAUCCACAAAUACAAACAUGAAUAAAUACAUUCAGAAUGUUGGCACCAUGAUGUUGGGCUUUAUUUGCUUUCCUGAGUAGUCCUCUUUCUUGUU	0.496
GUGCAGUUUAAGGUUCAGGCAUGCAUUCUGGCUCAUAGUGGUUGAAAGUAAUUUAAAUUAGUGGGAAAGUAGCAUGCUUGCAUCACAUAGAGUGAGAUUGGUAUUCAUUU	0.653
CACAUAAAGUGAACAAGAAAGUCAGCCAUUAUUUCACGCCAGACUUGAUUCCAUCCUGAGAAUUCAUGUUUAUAAUUAAAUGUGUGUUAAAUAUGCAAGCAUAUCACAAA	0.433

Series 2 — method: EMSA with sequencing; form: double-stranded DNA, one strand shown; sample: in vitro; tested at: 10 and 20 nM; baseline: negative control set to 0; reading: higher = stronger binding
Target: Hepatocyte nuclear factor 3-alpha (Foxa1, Mus musculus, UniProt P35582, residues 1-468, full length assumed)
Setting: whole designed probe, mean of two concentrations, ends assumed
Shared flanks, not repeated: GTGAGCGGTGCCCATTGATGGGGAAC … TTTCACTGGGATCGTGGGGAC
Target sequence (chain): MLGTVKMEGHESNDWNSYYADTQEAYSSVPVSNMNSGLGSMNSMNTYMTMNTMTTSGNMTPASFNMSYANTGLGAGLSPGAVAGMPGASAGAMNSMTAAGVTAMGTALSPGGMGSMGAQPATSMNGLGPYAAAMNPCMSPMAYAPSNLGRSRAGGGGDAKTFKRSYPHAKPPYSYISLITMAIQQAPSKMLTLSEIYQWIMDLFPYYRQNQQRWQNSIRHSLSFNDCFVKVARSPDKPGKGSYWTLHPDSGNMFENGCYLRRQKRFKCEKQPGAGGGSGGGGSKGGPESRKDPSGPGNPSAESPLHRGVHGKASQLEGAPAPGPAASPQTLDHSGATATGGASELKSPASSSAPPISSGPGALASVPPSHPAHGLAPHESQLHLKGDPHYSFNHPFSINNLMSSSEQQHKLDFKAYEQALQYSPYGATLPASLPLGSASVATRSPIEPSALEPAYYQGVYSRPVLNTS
Oligonucleotide	normalised bound fraction [ratio]
CTTCTAGCCTCCAGAGCTATAGGACTATGAATTAGTATGGTTTTAAGTTACTAGGTTTGTACTAATTTGTCACAGCAGCAATAGGAAACTAAAGCAAACACCAGACCTAAGCTTCCTCCTGCCTCAGGTGGGATAATTCAGGCATGATGTGCATGGTTTCAGTGGGTTGGAGCCTCTGCTGCCCACTGCAGTA	0.198
ACTTATAAATGGACACCCAATTTTCAGCTATAACAAAGAATGAAGTACTTATACATGGTAAAATATTGGTGAAATTTGAAAGCATTATGCTAAGTACTCTAAAGGACAAATATTACTTGATTTTATTCACATGAAACATCAGGAATTGGCAAATCAACTGGGATATAAATCAGATTAGTGGTCATTAGGGCTC	0.0188
ATGTGAATTTCTTCCGTTCCTTAGGAAAAAAGGATACACCATTTCTATTCATAAAGTGTATACTCTGAGATATTTAATATTAAGTCTTTCTTCATGTTTACATATAACATCTATCCTCTAACTTTATATATGCTTTTATAATAATCTGAACAATGTTAGTGTTGCTGCTTTTAAAATTATGAACTATTTCAAA	0.326
AAGCGCTTGAATAAAACAAATGCAATTGTAAAAAATGCACATTCTTCAAGTGTTTGCACTTTCCCTAGGTTTCTTTTATAATGAATATTTTTCATGTTTACATTTGTGTGACTTCAGAAAGGTGAATATCCTACGAAATTAGTAAGGCAGGATTATATTTGCTTTGTCCACTCACTGTAAGCTCCTCTGACCC	0.43
ATATCATAATTAATAGGACTTAGTCTCCATTAACCCCCAAAATAACATCAAAATAGTCTCCCAAAAATATAATTGATTTTTATGAGAACTTAATGTAAACATGCAACAAGAGATCCACTCTCAACCCTTCATGTAAACACATCTGTTGCTAATCATACGTTCAGAATCCCTTGCTTAGAGTATAGGCATAGTC	0.354

Series 3 — method: protein binding microarray; form: double-stranded DNA, one strand shown; sample: in vitro; tested at: not given; baseline: not given; reading: higher = stronger binding
Target: Histone acetyltransferase KAT6A, both winged helices, GST fusion (KAT6A, Homo sapiens, UniProt Q92794, residues 1-181)
Setting: 8-mer, flanks averaged, mean of 2 arrays, mostly near background
Construct (chain): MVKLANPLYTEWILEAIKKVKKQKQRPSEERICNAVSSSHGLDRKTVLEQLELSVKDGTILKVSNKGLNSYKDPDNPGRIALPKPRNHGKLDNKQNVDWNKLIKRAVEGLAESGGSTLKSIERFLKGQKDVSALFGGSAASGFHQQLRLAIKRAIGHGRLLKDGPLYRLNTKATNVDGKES
Oligonucleotide	E-score
AATAACGG	0.219
ATGCCGAA	0.182
AGGACGAA	0.0142
CAACCTCC	0.0651
CCCCTGGC	-0.0725
AATCGAGT	-0.13
ACTCCCAC	-0.165
AGGATCGG	-0.0494
AATAATGC	-0.0153
CGAGGACC	0.0735
AATTTATC	0.0584
ACAACATG	-0.0171
CGATTGGC	-0.0744
CGGTTCAC	0.188
CAAGGGGG	-0.245
TCGCCTAA	0.161
ACGCTCGG	0.219
CAATGGAC	-0.0357
AAAATCGA	-0.0609

Series 4 — method: competition protein-binding microarray; form: double-stranded DNA, one strand shown; sample: in vitro; tested at: 2 µM; added: Cbf1 competitor, 0.05 µM; reading: higher = stronger binding; shared flanks, not repeated: … GTCTTGATTCGCTTGACGCTGCTG
Target: Phosphate system positive regulatory protein PHO4, full length, GST-tagged (PHO4, Saccharomyces cerevisiae, UniProt P07270, residues 1-312)
Setting: whole 60-bp probe, lowest competitor level
Construct (chain): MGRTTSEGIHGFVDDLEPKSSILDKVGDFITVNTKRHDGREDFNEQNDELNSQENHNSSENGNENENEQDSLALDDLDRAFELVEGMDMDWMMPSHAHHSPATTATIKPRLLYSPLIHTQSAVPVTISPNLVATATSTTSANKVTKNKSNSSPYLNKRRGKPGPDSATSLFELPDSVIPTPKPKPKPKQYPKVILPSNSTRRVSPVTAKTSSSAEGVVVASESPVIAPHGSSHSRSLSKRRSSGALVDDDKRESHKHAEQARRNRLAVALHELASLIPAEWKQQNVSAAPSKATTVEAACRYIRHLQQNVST
Oligonucleotide	fluorescence intensity [a.u.]
CTTCTCGCGGTGGTGCCCGTGGTGATTCCAGAGGCG	8520
AGTGCGAACTACTGTTACGTGTGAATTGTAAAGGCG	5250
CATTTAAAGCTAATGAAATGTACCTCTCGCTTCATT	3490
CGGGGTTAAGTTTGTCACATAACTTGCTTGCAGCAG	3670
CTCCTCTGCAGAAAGCACGAGGTTGCCCTTCTACAG	11600
CGTCCTAGTGATTGTAGTGTGGGTGCCATGAGGAAG	7940
GACCAGTGGCCCCGTCACAATATTCTCGGAAGCTAA	2690
ATTTTCCTCAATCTGCTCGTGTAAGTGTCGGCCCGG	7170
CTTCTGTAAATTTTTCACGTGGCTTGACGCGCCCCG	12800
AGACTGTATTTTTGTCACCTGTCGCGGCAACTTACT	4330
CTTCTGTAAATTTTTCACGTGTATTGACGCGCCCCG	12100
TTCCAAATCTTTCCGAAAAAAATTCTCTAGCGGATT	2150
GGTGCTGTTATTTGTCATGCCATTTGCTCTGGATTA	5370
CTTGTGTTGCTTGGAAGTGTGATGGATACCCATTGT	5420
GATAGACGAGAAGGACACATGGAGGATTTGACAGGC	8050
AAAGCGGTAATTTTTCACGTGAAGTCAAATATCTAT	9740
CACTTTTCTGGGTCTCTCGTGGTAGTCTTCCTTGTT	7460
GACGAAACCTCTTCACGTGTGCAGGACTTGAAAATC	13300
GTCTTGTCTCATTGATGCGTGGGTGTCCCCACTTCA	8780

Excerpt of the above (series 4):
Oligonucleotide	fluorescence intensity [a.u.]
AAAGCGGTAATTTTTCACGTGAAGTCAAATATCTAT	9740
CTTGTGTTGCTTGGAAGTGTGATGGATACCCATTGT	5420
CACTTTTCTGGGTCTCTCGTGGTAGTCTTCCTTGTT	7460
CATTTAAAGCTAATGAAATGTACCTCTCGCTTCATT	3490
GATAGACGAGAAGGACACATGGAGGATTTGACAGGC	8050
GTCTTGTCTCATTGATGCGTGGGTGTCCCCACTTCA	8780
TTCCAAATCTTTCCGAAAAAAATTCTCTAGCGGATT	2150
CTTCTGTAAATTTTTCACGTGGCTTGACGCGCCCCG	12800
